Results collected from several papers.
Parts stem from different laboratories: compare values within a part only. Changes are numbered by the printed parent chain.

Set 1 — method: protein-binding microarray; form: double-stranded DNA, one strand shown; sample: in vitro; concentration: 0.8 µM; notes: whole 60-bp probe, no competitor; direction: higher = stronger binding; measurement: fluorescence intensity; constant ends, left off below: … GTCTTGATTCGCTTGACGCTGCTG
Target: Centromere-binding protein 1, full length, N-terminal tag (CBF1, Saccharomyces cerevisiae, UniProt P17106, residues 1-351)
Sequence of UniProt P17106 (whole entry, looked up): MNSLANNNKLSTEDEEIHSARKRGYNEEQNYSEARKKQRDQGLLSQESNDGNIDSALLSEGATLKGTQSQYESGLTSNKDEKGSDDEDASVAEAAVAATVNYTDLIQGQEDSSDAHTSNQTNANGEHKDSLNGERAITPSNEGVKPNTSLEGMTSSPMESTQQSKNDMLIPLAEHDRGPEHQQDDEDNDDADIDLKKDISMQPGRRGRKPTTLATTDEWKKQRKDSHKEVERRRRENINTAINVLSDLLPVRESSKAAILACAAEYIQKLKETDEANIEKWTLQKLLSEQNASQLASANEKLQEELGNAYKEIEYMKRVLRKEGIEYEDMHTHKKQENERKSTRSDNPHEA
GAACGACGATTTGGTCACGAGAGCGAATTGAATTAG: 2740 a.u.
CCTAACTACTATAGTGATGTTCCATAGCTTCGTACA: 525 a.u.
CTATAGGACTACCAACACATGCATGGATGCCAGTTC: 536 a.u.
GAATAATTTTGAGTTCACCTGTTGATGTGGTGCTAG: 518 a.u.
GAATTCGTTTTATCTGATGTCATTCATTGATTGTAG: 532 a.u.
CCTAACTACTATAAAAACACGGGATAGCTTCGTACA: 661 a.u.
TGTACGAAGCTATGGAACGTGACTATAGTAGTTAGG: 2150 a.u.
GAATCGTTTATACGTGACGTTGACGATGGGATTTAG: 579 a.u.
GAAATTGATTGACTCTTCGTGATAACTATTTCTTAG: 536 a.u.
CTAGTTCTCAAACGTCACGCTATGAACAGTACATTC: 712 a.u.
CTATCCGTAATTAGCCACGAGGCCAGAAAGGAATTC: 660 a.u.
TGTACGAAGCTATATCACACCCTTATAGTAGTTAGG: 555 a.u.
GAACATCACCGTTTTCACATGCTGTCTAGTGGCTAG: 595 a.u.
GAATATTAGCTTGAACTCGTGGTTCCTATTGTCTAG: 597 a.u.
GAATAAGTAGAATTTTACACCACGCATTTATAATAG: 610 a.u.
CTACAAATTGGTCATCTCACCAGATATGTTATATTC: 563 a.u.
CTACAATACCACCATGACGTCATTAACTTAAATTTC: 537 a.u.
GAAATCATTTGTGCTCGTGAGGCTATGAAATAATAG: 611 a.u.
CTAATTTCAGAGTTGCACGTTGGTATATCCTAATTC: 553 a.u.

Set 2 — target: CCNA2, cyclin fold, Cln2 fusion (human); method: yeast growth competition, sequencing; sample: yeast; notes: strong parent motif; baseline: not given; direction: higher = stronger binding; measurement: normalised enrichment score
Starting sequence: CDKN1B docking peptide (human); PSACRNLFGPVDH
G9H: 1.86
L7P: -0.0914
P1T: 4.53
P10D: 3.59
S2C: 2.43
C4L: 2.36
V11Q: 3.38
G9S: 1.9
L7Q: 0.43
G9K: 2.45
G9P: 2.92
H13S: 4.59

Set 3 — method: DHFR PCA, deep sequencing; sample: yeast; added: (+)-ABA 0.11 µM; baseline: wild-type fitted maximum; direction: higher = stronger binding; measurement: relative binding score
Target: ABI1, truncated, D143A, DHFR fusion (Arabidopsis thaliana)
Notes: methotrexate growth selection, single substitutions
Starting sequence: PYL1, truncated, DHFR fusion (Arabidopsis thaliana); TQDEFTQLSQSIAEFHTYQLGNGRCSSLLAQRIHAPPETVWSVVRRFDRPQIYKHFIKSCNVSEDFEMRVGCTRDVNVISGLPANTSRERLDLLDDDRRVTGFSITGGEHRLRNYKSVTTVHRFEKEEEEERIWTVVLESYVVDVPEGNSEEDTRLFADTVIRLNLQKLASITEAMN
G71C: -7.6%
G71L: -0.714%
S11N: 7.19%
T154Q: 0.373%
T160H: 11.4%
S80A: 15.1%
D97E: 53.2%
I79P: -2.98%
V100A: 28.6%
N149I: 38.4%
E174W: 0.669%
I79E: 14.2%
I172Y: 9.18%
F15M: -0.803%

Set 4 — method: RNA Bind-n-Seq; form: RNA; sample: in vitro; concentration: 365 nM; baseline: no-protein control; direction: higher = stronger binding; measurement: RBNS enrichment (R)
Target: RNA binding protein fox-1 homolog 2, RRM domain, GST-SBP tag (RBFOX2, Homo sapiens, UniProt O43251-10, residues 100-194)
Notes: natural RNA segment, single round, ends assumed
Constant ends, left off below: GGGAGUUCUACAGUCCGACGAUC … UGGAAUUCUCGGGUGCCAA
Residues (chain): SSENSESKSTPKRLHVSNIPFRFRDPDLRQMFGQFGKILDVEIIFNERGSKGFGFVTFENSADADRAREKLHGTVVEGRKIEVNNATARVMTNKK
CCAGCCUUCUCAGUGGACUUGCCCCUCCUAAGCAGAGAAGGCCUAUGAGGUUGCUUGCUGCUGGGAAGCCUGGCAGAGCCAAUUACCACCCUCUGCUGCUUAGUGCUUGG: 0.477
CAAGUAUGGCAAAGCUUAUCCAAUUUUAUGCUUGGAGCAGUCAGUACAUACCAGUUUCUGAUGUUUCAGGCAGGAGUGGGGUAAAUAAGUGUGACCACUUAAAGCUGCUC: 0.252
UGACGGUAAUUAGAAGAAGCAGAGGCUCACACAUCUCCUGGCACGGUCUUAUCUCCCUCGUGUGUUGAACUUGCUGUCCGUCCAUGCACCCUACGAAGGCCAUGCUGUGC: 0.431
AGGUCUCUGGUCUCCCUACCCCUGCUGUGCUGAUCACAGUCCCUCCCAGUUACCACUAGGACAUUCUCUAGUAGAUCCAUUUUGCUGUCACUUUAUUCUAUGGCUAGAAA: 0.546
GUCCCCAAGUCUGCUAAUUAAGGGCCCACUUCUACUUUCUAGUCGCACUUCUGAAAUUCCAUAUUUUGUUUGCUGGGGCCUGAGUUUGCUGGCUUUUAAAAUAUAGAUCA: 1.18
UAUAUAUCUUUUACAGAGGCUAUUUUAAUCUUUAGUGCAUGGUUAACAGAAAAAAAUUAUACAAUUUUGACAAUAUUAUUUUUCGUAUCAGGUUGCUGUUUAAUUUUGGA: 3.46
CCUCUGGUCCUGCAUAUGCAGAGGACGGAGCAGGCUCAGCCCCCUGGAAGAUGAGCUCAAGGGGAGGACAGGCCUUGGGAGGGCAGGCGUUUGCAUUAAUAUCAAGGCAA: 0.368
GAAGGAGCAAAAAAAGCCACCGCUCGUUUCUAUAAUCCAGCUUUGCUUUUCACAGGCGUGGGAUCCAGGAUGGUGUCCUCUGUGAGGACUUGAACUCUGGGGCUUUAAUU: 0.365

Other studies, line by line
PhoQ, residues 284 288 289 292 302 303 TLMATV — fold induction (PhoP, residues 12 14 15 18 19 NMSFL (Escherichia coli, UniProt P23836); Sort-seq, measured: YFP reporter; E. coli; PhoQ-PhoP variant library, added: 10 µM Mg2+; baseline: high Mg2+ state, higher = stronger signaling): 4.51

Some of these lines once more (set 1):
GAATTCGTTTTATCTGATGTCATTCATTGATTGTAG: 532 a.u.
CCTAACTACTATAAAAACACGGGATAGCTTCGTACA: 661 a.u.
TGTACGAAGCTATGGAACGTGACTATAGTAGTTAGG: 2150 a.u.
